Measured values pooled from the literature.
Every numbered part comes from another study and shows a few of its results, in no order. Changes are numbered by the printed parent chain.

Series 1 — technique: protein binding microarray; form: double-stranded DNA, one strand shown; medium: in vitro; tested at: not given; baseline: not given; reading: higher = stronger binding
Target: Histone acetyltransferase KAT6A, both winged helices, GST fusion (KAT6A, Homo sapiens, UniProt Q92794, residues 1-181)
Notes: 8-mer, flanks averaged, mean of 2 arrays, mostly near background
Construct (chain): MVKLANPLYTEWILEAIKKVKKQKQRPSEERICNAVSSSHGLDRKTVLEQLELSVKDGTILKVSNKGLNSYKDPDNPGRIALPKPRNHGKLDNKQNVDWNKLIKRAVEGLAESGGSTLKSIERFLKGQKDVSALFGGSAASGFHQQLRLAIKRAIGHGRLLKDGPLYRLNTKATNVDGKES
`ACTACATG` gave an E-score of 0.0302.
`AAACAATG` has an E-score of -0.0936.
With `AATGGCTA` the E-score was -0.228.
`ACCAAAGT` has an E-score of -0.164.
`AGACGGAG` has an E-score of 0.0308.
For `AATATTAG`, the E-score was -0.178.
`CTTGAGTC` has an E-score of -0.109.
`ACTAGAGC` gave an E-score of -0.00545.
For `GAATATAC`, the E-score was 0.0425.
For `CGAGTTAC`, the E-score was -0.00494.
With `CATGTTGA` the E-score was 0.0562.
With `CCCCAACA` the E-score was -0.27.
`GACTATAA` has an E-score of -0.126.
`CTGGCCAA` gave an E-score of -0.0907.
`CGGAGTAA` gave an E-score of 0.0765.
`CAGACACC` gave an E-score of -0.0291.
With `ATCCGGCC` the E-score was 0.0924.
For `GTGGCGTA`, the E-score was 0.0162.
`AGTGCACG` gave an E-score of 0.197.
With `CTGTACAC` the E-score was 0.0718.
For `CGCAGGGA`, the E-score was -0.0115.
For `ACAGCGGG`, the E-score was 0.145.
The E-score of `CTGCCCAG` is reported as -0.182.
`CTACCATA` gave an E-score of -0.124.
For `GCCCGCGC`, the E-score was 0.371.

Series 2 — target: CCNA2, cyclin fold, Cln2 fusion (human); technique: yeast growth competition, sequencing; medium: yeast; notes: strong parent motif; baseline: not given; reading: higher = stronger binding
Starting sequence: GMNC docking peptide (human); KNAKRNLSSEFAN
For `KNAKRNLSSCFAN [E10C]`, “normalised enrichment score” read 2.84.
Under “normalised enrichment score”, `KNAKRNLSSEFYN [A12Y]` is recorded as 4.52.
`KAAKRNLSSEFAN [N2A]` — result for “normalised enrichment score”: 4.65.
`KNAKRNLSSHFAN [E10H]`: “normalised enrichment score” 1.65.
`KNAKRNMSSEFAN [L7M]` — result for “normalised enrichment score”: 0.328.
Under “normalised enrichment score”, `KNAKRNLSSEIAN [F11I]` is recorded as 0.938.
`KNAIRNLSSEFAN [K4I]` — result for “normalised enrichment score”: 3.72.
Under “normalised enrichment score”, `KNAKRNLESEFAN [S8E]` is recorded as 5.38.
For `KNAQRNLSSEFAN [K4Q]`, “normalised enrichment score” read 2.94.
Under “normalised enrichment score”, `KNAKRNLSSEFFN [A12F]` is recorded as 4.65.
Under “normalised enrichment score”, `KNASRNLSSEFAN [K4S]` is recorded as 2.98.
For `KNAKRNLSSEFDN [A12D]`, “normalised enrichment score” read 5.1.
Under “normalised enrichment score”, `KNAKRNLSSEDAN [F11D]` is recorded as 0.819.
`KNAKRNLSPEFAN [S9P]` — result for “normalised enrichment score”: 4.76.
For `KNAKRNASSEFAN [L7A]`, “normalised enrichment score” read 0.743.
For `KNAKINLSSEFAN [R5I]`, “normalised enrichment score” read 0.344.
Under “normalised enrichment score”, `KNWKRNLSSEFAN [A3W]` is recorded as 4.64.
`KNAKRNLSSECAN [F11C]` — result for “normalised enrichment score”: 0.776.
For `KQAKRNLSSEFAN [N2Q]`, “normalised enrichment score” read 5.12.
Under “normalised enrichment score”, `KNAKRNLSSLFAN [E10L]` is recorded as 3.13.
Under “normalised enrichment score”, `KNAPRNLSSEFAN [K4P]` is recorded as 1.02.
`KNAKRNLSLEFAN [S9L]`: “normalised enrichment score” 5.79.
Under “normalised enrichment score”, `KNTKRNLSSEFAN [A3T]` is recorded as 4.46.
`KNAKKNLSSEFAN [R5K]` — result for “normalised enrichment score”: 1.98.
`KNAKQNLSSEFAN [R5Q]`: “normalised enrichment score” 0.508.

Series 3 — technique: protein-binding microarray; form: double-stranded DNA, one strand shown; medium: in vitro; tested at: 0.8 µM; notes: whole 60-bp probe, no competitor; reading: higher = stronger binding
Target: Centromere-binding protein 1, full length, N-terminal tag (CBF1, Saccharomyces cerevisiae, UniProt P17106, residues 1-351)
Chain of UniProt P17106 (whole entry, looked up): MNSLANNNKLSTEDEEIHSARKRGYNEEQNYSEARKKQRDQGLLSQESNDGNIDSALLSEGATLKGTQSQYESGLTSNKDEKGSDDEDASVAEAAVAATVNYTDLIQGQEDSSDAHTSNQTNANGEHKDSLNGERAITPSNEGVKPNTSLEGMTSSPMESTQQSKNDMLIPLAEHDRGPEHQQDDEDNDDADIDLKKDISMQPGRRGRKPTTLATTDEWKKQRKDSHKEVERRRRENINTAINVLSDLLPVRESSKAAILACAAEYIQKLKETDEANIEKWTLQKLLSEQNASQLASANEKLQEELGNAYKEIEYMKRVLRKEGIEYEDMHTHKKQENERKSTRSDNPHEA
`GAATTGAAAAATACCATCGTGATTGCCTTCAAATAGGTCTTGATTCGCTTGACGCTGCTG` gave a fluorescence intensity of 680 a.u.
The fluorescence intensity of `CTATTTTGTTGTTATATTCACGTGCCTGTTTGCTTCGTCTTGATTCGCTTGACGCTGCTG` is reported as 8160 a.u.
With `CTACCTTCCTTTTACCTCGTGAAAGGACTATATTTCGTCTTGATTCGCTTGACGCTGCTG` the fluorescence intensity was 590 a.u.
The fluorescence intensity of `GAACGCAAGTGATGGAATGTGATCATTAAAGGCTAGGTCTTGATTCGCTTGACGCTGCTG` is reported as 724 a.u.
The fluorescence intensity of `CTACAACCCAACTTTACCACCAGGGCACACTTCTTCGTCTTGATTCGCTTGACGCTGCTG` is reported as 548 a.u.
The fluorescence intensity of `CTAGTGCAGGTGACGCACGAACTTCTTAGAATGTTCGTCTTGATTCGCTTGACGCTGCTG` is reported as 1100 a.u.
`GAAAACAGATACAGACATCACACGCCATAGAGGTAGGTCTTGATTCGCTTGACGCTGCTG` gave a fluorescence intensity of 572 a.u.
For `GAATACGTATTAACTCACCAGACTACAATAGTATAGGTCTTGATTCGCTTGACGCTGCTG`, the fluorescence intensity was 548 a.u.
`CCTAACTACTATAATCACCCCGCATAGCTTCGTACAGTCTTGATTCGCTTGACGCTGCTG` gave a fluorescence intensity of 508 a.u.
With `GAACGAAAGCAAACAATCGTGATATCTCTTGTATAGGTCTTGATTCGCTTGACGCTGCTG` the fluorescence intensity was 537 a.u.
The fluorescence intensity of `CTACTAGTTAAAATGAACGTGTATTATATGGTATTCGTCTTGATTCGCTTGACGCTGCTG` is reported as 530 a.u.
`CTATGAGTACTTCCTCACCTGATCCAATCGGTTTTCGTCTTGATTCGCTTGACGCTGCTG` gave a fluorescence intensity of 872 a.u.
The fluorescence intensity of `GAATTTTGGCAGCATGATGCAACCACATTGCACTAGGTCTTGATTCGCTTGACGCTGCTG` is reported as 569 a.u.
For `CTAGCACCTGCTAATCTGGTGGATAACGGCAGGTTCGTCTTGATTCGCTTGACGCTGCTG`, the fluorescence intensity was 506 a.u.
For `CTATAAGAATTTCACCACGACATCGAAATGTAATTCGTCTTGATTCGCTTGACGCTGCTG`, the fluorescence intensity was 524 a.u.
`GAAAGAAAGCCTTACAGGGTGACACTCAATTTGTAGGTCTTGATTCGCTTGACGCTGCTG` gave a fluorescence intensity of 510 a.u.
`GAAAGTGTACAAGGCCACGTTCTGTCACCGTCATAGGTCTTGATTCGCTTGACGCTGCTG` has a fluorescence intensity of 520 a.u.
For `CTATTTTGATATCCACACGTTATTGAGCTCATTTTCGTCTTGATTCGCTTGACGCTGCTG`, the fluorescence intensity was 566 a.u.
For `CTATTCCAAGTACCTGATGTGTGCTTGCGAGTATTCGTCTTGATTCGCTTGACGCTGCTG`, the fluorescence intensity was 521 a.u.

Series 4 — technique: RNA Bind-n-Seq; form: RNA; medium: in vitro; tested at: 200 nM; notes: whole 134-nt RNA, ends assumed; with: 150 mM KCl; baseline: input library; reading: higher = stronger binding
Target: Fragile X messenger ribonucleoprotein 1, C-terminal low-complexity region (Fmr1, Mus musculus, UniProt P35922)
With `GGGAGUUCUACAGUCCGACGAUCCAAGUCCUGUGCUACACAUCGUAUGUACCGAAUCGGGAGGGUUUGGGUUUUUGGGAAAGUAUUAUGUUACGCCGUUCGGAUCUGCACUUCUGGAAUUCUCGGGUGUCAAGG` the log2 enrichment was 0.869.
The log2 enrichment of `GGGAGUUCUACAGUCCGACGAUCCUGUGCUACACAUCGUAUGUACCGAAUCGGGGAAAAAAAGGGGUUUUUGGGGAAAAAGGGGAAAGUAUUAUGUUACGCCGUUCGGAUCUGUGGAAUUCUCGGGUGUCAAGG` is reported as -0.14.
For `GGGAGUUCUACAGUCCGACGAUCAGUCCUGUGCUACACAUCGUAUGUACCGAAUCGGGGUUUUGGGUUUUGGGGUUUUGGAAAGUAUUAUGUUACGCCGUUCGGAUCUGCACUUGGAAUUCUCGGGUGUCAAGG`, the log2 enrichment was 0.101.
For `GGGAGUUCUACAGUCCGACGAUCCCUGUGCUACACAUCGUAUGUACCGAAUCGGGGUUUUUUGGUUUUUUGGGGUUUUUUGGGAAAGUAUUAUGUUACGCCGUUCGGAUCUGCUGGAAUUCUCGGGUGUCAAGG`, the log2 enrichment was -0.349.
For `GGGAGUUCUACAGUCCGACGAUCAAGUCCUGUGCUACACAUCGUAUGUACCGAAUCAAACCCCCAAAUUUAAACCCAAAAAAGUAUUAUGUUACGCCGUUCGGAUCUGCACUUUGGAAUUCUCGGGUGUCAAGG`, the log2 enrichment was -0.137.
`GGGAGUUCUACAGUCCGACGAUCUAACUUUAGAGGAGGAUCUGAUAGAUAUGGCAGUGGACGUGGAUUUGGGGAUGGCUAUAAUGGGUAUGGAGGAGGACCUGGAGGUGGCAAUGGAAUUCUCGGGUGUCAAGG` gave a log2 enrichment of 0.216.
The log2 enrichment of `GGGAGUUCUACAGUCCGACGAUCCUCAAGUCCUGUGCUACACAUCGUAUGUACCGAAUCGGGAGGGUGGGUUUGGGAAAGUAUUAUGUUACGCCGUUCGGAUCUGCACUUCCAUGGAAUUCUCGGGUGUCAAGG` is reported as 1.05.
`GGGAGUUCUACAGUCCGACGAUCAAGUCCUGUGCUACACAUCGUAUGUACCGAAUCGGGGAGGGGUGGGGAAAAAGGGGAAAGUAUUAUGUUACGCCGUUCGGAUCUGCACUUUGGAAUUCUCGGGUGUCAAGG` has a log2 enrichment of 0.697.
The log2 enrichment of `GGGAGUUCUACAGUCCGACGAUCUCCUGUGCUACACAUCGUAUGUACCGAAUCGGGUUUUUGGGAAAAAGGGUUUUUUUGGGAAAGUAUUAUGUUACGCCGUUCGGAUCUGCAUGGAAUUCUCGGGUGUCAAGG` is reported as -0.149.

Series 5 — target: CEBPE, bZIP domain (human); technique: DHFR protein complementation; medium: yeast; baseline: wild-type JUN-FOS pair; reading: higher = stronger binding
Notes: single substitutions, most at no-binding floor
Starting sequence: JUN, bZIP domain (human); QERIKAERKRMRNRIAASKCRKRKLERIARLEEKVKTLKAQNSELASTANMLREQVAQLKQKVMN; partner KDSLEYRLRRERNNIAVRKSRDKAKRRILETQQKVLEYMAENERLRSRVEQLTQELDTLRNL
The binding fitness of `A46W` is reported as -1.25 natural log.
For `T48R`, the binding fitness was -0.807 natural log.
The binding fitness of `Q58T` is reported as -0.969 natural log.
`K39M` gave a binding fitness of -1.16 natural log.
`E32W` gave a binding fitness of -1.5 natural log.
`V56T` has a binding fitness of -1.43 natural log.
With `R30E` the binding fitness was -0.742 natural log.
For `E33T`, the binding fitness was -1.28 natural log.
`R30C` gave a binding fitness of -1.14 natural log.
`M51L` gave a binding fitness of -1.02 natural log.
`Q55Y` gave a binding fitness of -1.4 natural log.
For `A40S`, the binding fitness was -1.11 natural log.
With `L31V` the binding fitness was -1.41 natural log.
`Q55P` has a binding fitness of -1.53 natural log.
`A49V` has a binding fitness of -1.04 natural log.
`K34S` has a binding fitness of -1.3 natural log.
`E33M` has a binding fitness of -1.32 natural log.
With `E44P` the binding fitness was -1.54 natural log.
With `A40Q` the binding fitness was -0.919 natural log.
The binding fitness of `A46R` is reported as -0.929 natural log.
The binding fitness of `N42H` is reported as -1.33 natural log.
For `N42F`, the binding fitness was -1.53 natural log.

A few entries again (series 1):
For `GCCCGCGC`, the E-score was 0.371.
With `CATGTTGA` the E-score was 0.0562.
For `AATATTAG`, the E-score was -0.178.
For `ACAGCGGG`, the E-score was 0.145.
For `CGAGTTAC`, the E-score was -0.00494.
With `CCCCAACA` the E-score was -0.27.
With `AATGGCTA` the E-score was -0.228.
`ACTACATG` gave an E-score of 0.0302.
For `GTGGCGTA`, the E-score was 0.0162.
`CTGGCCAA` gave an E-score of -0.0907.
`GACTATAA` has an E-score of -0.126.
`ACCAAAGT` has an E-score of -0.164.
`CTTGAGTC` has an E-score of -0.109.
With `CTGTACAC` the E-score was 0.0718.
